# Assay results collected from several papers.
# A part holds a random share of what one study measured. Positions count from the first letter of the parent shown.

# Block 1
# Target: ABI1, truncated, D143A, DHFR fusion (Arabidopsis thaliana)
# Method: DHFR PCA, deep sequencing
# Medium: yeast
# Notes: methotrexate growth selection, single substitutions
# Together with: (+)-ABA 0.032 µM
# Relative to: wild-type fitted maximum
# Direction: higher = stronger binding
# Starting sequence: PYL1, truncated, DHFR fusion (Arabidopsis thaliana); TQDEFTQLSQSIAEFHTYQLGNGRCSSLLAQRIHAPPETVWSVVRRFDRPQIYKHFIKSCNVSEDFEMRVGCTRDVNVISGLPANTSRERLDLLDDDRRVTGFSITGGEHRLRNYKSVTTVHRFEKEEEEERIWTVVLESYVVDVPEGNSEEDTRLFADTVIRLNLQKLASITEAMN; partner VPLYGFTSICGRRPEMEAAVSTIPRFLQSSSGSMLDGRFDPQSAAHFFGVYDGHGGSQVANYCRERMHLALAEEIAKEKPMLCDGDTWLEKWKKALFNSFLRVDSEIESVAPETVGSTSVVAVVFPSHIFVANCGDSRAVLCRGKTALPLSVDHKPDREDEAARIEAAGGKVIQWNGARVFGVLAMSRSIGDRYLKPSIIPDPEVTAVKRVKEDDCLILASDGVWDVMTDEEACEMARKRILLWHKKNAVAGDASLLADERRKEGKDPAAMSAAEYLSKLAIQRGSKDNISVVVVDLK
Change,relative binding score [%]
F15E,3.27
Y18P,4.12
T101D,-1.85
V121K,0.0535
E67I,28.5
A84N,28.7
K126H,38.9
T73C,12.6
K168C,4.05
N149Y,20.5
K58W,-0.403
I162N,4.38
T173M,-3.41
I33S,3.32
D3I,3.45
H110E,39
V70W,-0.258
S117G,7.23
L20Y,13.2

# Block 2
# Target: CREB3L4, bZIP domain (human)
# Method: DHFR protein complementation
# Medium: yeast
# Notes: single substitutions, most at no-binding floor
# Relative to: wild-type JUN-FOS pair
# Direction: higher = stronger binding
# Starting sequence: JUN, bZIP domain (human); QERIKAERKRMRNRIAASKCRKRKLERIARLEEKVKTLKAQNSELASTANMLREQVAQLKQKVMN; partner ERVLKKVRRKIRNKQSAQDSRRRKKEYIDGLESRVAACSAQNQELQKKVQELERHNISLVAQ
Change,binding fitness
Q55E,-1.55 natural log
V35T,-1.46 natural log
L52V,-1.56 natural log
Q55D,-1.5 natural log
S43G,-1.37 natural log
T37R,-1.38 natural log
T48A,-1.35 natural log
K39T,-1.49 natural log
Q41M,-1.52 natural log
Q41H,-1.54 natural log
E32R,-1.44 natural log
L38D,-1.43 natural log
N42L,-1.49 natural log
A46Y,-1.41 natural log
E44G,-1.53 natural log
K39D,-1.46 natural log
E54H,-1.62 natural log
E33R,-1.45 natural log
L59G,-1.46 natural log
L52P,-1.49 natural log
E32P,-1.5 natural log
Q55R,-1.53 natural log
L52Y,-1.47 natural log
L45A,-1.47 natural log
E33Q,-1.26 natural log

# Block 3
# Target: RNA binding protein fox-1 homolog 2, RRM domain, GST-SBP tag (RBFOX2, Homo sapiens, UniProt O43251-10, residues 100-194)
# Method: RNA Bind-n-Seq
# Molecule type: RNA
# Medium: in vitro
# Tested at: 365 nM
# Notes: natural RNA segment, single round, ends assumed
# Relative to: no-protein control
# Direction: higher = stronger binding
# Residues (chain): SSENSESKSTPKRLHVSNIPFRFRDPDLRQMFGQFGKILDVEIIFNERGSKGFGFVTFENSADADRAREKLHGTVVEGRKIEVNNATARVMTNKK
Oligonucleotide,RBNS enrichment (R)
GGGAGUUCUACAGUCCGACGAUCUAUACACAUGAAUACUUAAAUGCCAACAUUUAAAAUAAUUUGAUAAAGUCUUUGUAGCCACUCAGCCCCUCUGGUGUUUGUGGUAUUGUUUUAAUGGGACAAGAGAUUAGUGGAAUUCUCGGGUGCCAA,0.681
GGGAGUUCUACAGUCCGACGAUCUUUCUUCUUUGUAUCUCCCUCCUUCCCAGCCCACCCGGGCAGCAGACUCUGAUGGAAGGAAGGUGCCGUAGGUGGGCUUUUAGAAACUAACGGGACUGGUUUUCAAAGCAUGGAAUUCUCGGGUGCCAA,1.81
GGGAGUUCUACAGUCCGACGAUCUACCAUUACAACUGUUCUUUGCUGGACGGCACCCAGCUGUUCACCUCGCAUGACUACGGGGCCCCCCAGGAGGCGACUCUCGGGGCCAACAAGGUGAUCGAAGGCCUGGAUGGAAUUCUCGGGUGCCAA,1.42
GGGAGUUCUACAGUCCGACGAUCUUCCAUGUAGAGGGUGACGAACUCUGGAUUCCCCCCCACCCCCACCCCGUGCCGUGUAGACACUCAUCUUCUGCAUGACAUGAUCUACCAUUCGGUGUAAACAUUUGUGUUGGAAUUCUCGGGUGCCAA,0.348
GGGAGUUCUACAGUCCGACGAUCGGUGAGUGGCUGGUUCCAGGGUGGGCCGGUGCCAGCUCCGGGGUGGACUGAACAGCGGCGGCUGUCCCUGUGCAUCCUUUGAUUACUCUCAUGCUGCAUUUACUGUUUACUGGAAUUCUCGGGUGCCAA,0.585
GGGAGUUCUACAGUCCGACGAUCGUGUGUACACAUACACAUUUGAGAUUGUAUGAGAACAUAUAAUCCAUAUGAUAUGUUGUACAUUUUAUGGAAAUGUAAUAGAAUCUCACACAUUAUUUUAUAGAAAUAGAUGGAAUUCUCGGGUGCCAA,0.884
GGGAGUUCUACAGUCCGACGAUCUUCAAAGAACAUUGAGUUGUAUUUAAUCAGCGUGUACUCCAUUUGCAUUGAAGCAUUAAAAAUUAUUUUUCUUAAAAUCUCUUUAAGGCCUUCUUGUUGCUGUUAGAAUAUGGAAUUCUCGGGUGCCAA,0.779
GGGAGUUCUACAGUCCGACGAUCAAUAUUUUUGAUCGACCAAAUAAAAUGUCCUAAUAAUCUACUCUAUUUAUAUCUACAUUUCCUUCCAGCUGAGUCUUCAAAUUUAGCAUUAUUUUGACACUUUUAAUUUUUGGAAUUCUCGGGUGCCAA,0.843
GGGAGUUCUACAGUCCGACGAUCUGACAGAUGUUUUUCUAAAAAGGACUAUUAUCAGUUUCCAAAUACAAUACUUCUCUCUUCUGGUUUUUCCUGAAUGAGCCUGAUUUUGUUGCUGGUUUUCAUCAUCUAUGUGGAAUUCUCGGGUGCCAA,0.222
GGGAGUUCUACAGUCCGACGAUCCAGGAUGUCCUGCUCCAUCUGGCCGGCUCACUCCGUGUGGCCUGCCUUUGCUGACCGUUUUGGGGUUCCCCGCCGGAGCUACAGGGGCAUUUUCUUCCCUAAAACCAACAUGGAAUUCUCGGGUGCCAA,0.282
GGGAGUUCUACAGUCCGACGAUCUAGAGAGAGAGAAGCUGGAAGCGCAGCGAGCUCAGGAGAACGUGGAGCUGCCCCAGCUGAAGGGGGCUGUGUAUGUGUCUGAGGAGCUUAGUAAGACUCUGGUUCACACCUGGAAUUCUCGGGUGCCAA,1.2
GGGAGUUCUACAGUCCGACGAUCCUGAAAACUAUCAUUAGCCAGCCUUUCUUACUGACAAUAAAUUAUUAAUAAAAUACUUUAGCUUUAAUGCCUGGUUUUCUUCUGCAUUUAUAUUGCUGUUUAUGAUCUACUGGAAUUCUCGGGUGCCAA,0.531

# Block 4
# Target: CCNB1, cyclin fold, Cln2 fusion (human)
# Method: yeast growth competition, sequencing
# Medium: yeast
# Notes: weak parent motif
# Relative to: not given
# Direction: higher = stronger binding
# Starting sequence: ORC1 docking peptide (human); PRARKRLELGNLG
Change,normalised enrichment score
R2E,1.3
G13D,1.09
R6D,0.639
R4P,0.759
A3S,0.895
G13F,0.0908
L12H,0.942
R4T,1.07
N11M,1.41
G10T,-0.482
R2L,-0.407
R6L,0.987
G13W,-0.51
G13K,0.915
R4C,0.367
R4M,0.769
E8K,0.261
L12N,0.631
E8C,0.497
L12R,0.405
K5R L9F,0.598

# Block 5
# Target: Histone acetyltransferase KAT6A, both winged helices, GST fusion (KAT6A, Homo sapiens, UniProt Q92794, residues 1-181)
# Method: protein binding microarray
# Molecule type: double-stranded DNA, one strand shown
# Medium: in vitro
# Tested at: not given
# Notes: 8-mer, flanks averaged, mean of 2 arrays, mostly near background
# Relative to: not given
# Direction: higher = stronger binding
# Target sequence (chain): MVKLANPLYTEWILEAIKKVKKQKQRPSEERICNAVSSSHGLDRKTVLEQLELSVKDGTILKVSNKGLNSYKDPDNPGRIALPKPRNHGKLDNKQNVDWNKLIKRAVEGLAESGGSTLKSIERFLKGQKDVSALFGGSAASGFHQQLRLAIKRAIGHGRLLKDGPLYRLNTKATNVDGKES
Oligonucleotide,E-score
CTTATCCC,-0.0308
AGTCTTGC,-0.015
ACCCGCCC,0.194
ACCAAACT,-0.167
CACCTCCA,-0.0882
GCGTCTCC,0.278
CAATACCC,-0.00453
AAATAAAC,-0.00284
GAAGAAAC,-0.0239
AATCATAT,0.0503
CCTATCCA,-0.235
CGTATGCC,0.1
CAGGTAAA,0.0158
AAATTGTC,0.00198
CGGACAAG,0.237
GCGGCAGA,0.29
GATCAACC,0.0407
TAGTATAA,-0.0457
ATAAACAT,0.105
AACGGCGT,0.247

# Some of these lines once more (block 1):
Change,relative binding score [%]
N149Y,20.5
K58W,-0.403
I162N,4.38
T173M,-3.41
I33S,3.32
D3I,3.45
